Experimental data gathered from unrelated publications.
Compare with care: the assays were run in different laboratories. Values joined by “and” are separate records of one study, mostly repeats; a detail may differ. ± marks the error that the study gave.

With CC(C)C[C@H](NC(=O)[C@H](CCC(=O)O)NC(=O)[C@H](CCC(=O)O)NC(=O)[C@H](CC(=O)O)NC(=O)[C@H](CCC(=O)O)NC(=O)[C@H](CCC(=O)O)NC(=O)[C@H](CCC(=O)O)NC(=O)[C@@H](N)CC(=O)O)C(=O)O the plasma concentration was 10300 ng/mL (rat, plasma; intravenous, 11.0 mg/kg single dose, 15 min).
The measured concentration of CC1(C)S[C@@H]2[C@H](NC(=O)[C@@H](C(=O)O)c3ccsc3)C(=O)N2[C@H]1C(=O)O is reported as 2344 ± 16 ng/mL (rat plasma; 2400 ng/mL, -20 °C to room temperature, three freeze-thaw cycles).
With Cc1ccc(Nc2nccc(N(C)c3ccc4c(C)n(C)nc4c3)n2)cc1S(N)(=O)=O the Cmin was 23700 ng/mL (patients with gastric acid suppression, plasma; oral, 800 mg once daily, 24 h, fasted, first steady state, geometric mean).
With CC(C)[C@@H]1NC(=O)[C@H](C)OC(=O)[C@@H](C(C)C)NC(=O)[C@@H](C(C)C)OC(=O)[C@H](C(C)C)NC(=O)[C@H](C)OC(=O)[C@@H](C(C)C)NC(=O)[C@@H](C(C)C)OC(=O)[C@H](C(C)C)NC(=O)[C@H](C)OC(=O)[C@@H](C(C)C)NC(=O)[C@@H](C(C)C)OC1=O the partition coefficient was 3400 (n-decane over 0.1 M KCl).
Cc1sc2c(c1C)C(c1ccc(Cl)cc1)=N[C@@H](CC(=O)OC(C)(C)C)c1nnc(C)n1-2: “recovery vs nominal” 95.8% and 94.5% (LC-MS; Ringer's solution with 10% β-cyclodextrin; 50 ng/mL, time not given, glass vessel, low-bind vial).
CSCC[C@@H]1NC(=O)[C@H](CC(=O)O)NC(=O)CNC(=O)[C@H](CCCNC(=N)N)NC(=O)[C@H](C)NC(=O)[C@H](CCC(=O)O)NC(=O)[C@H](CCCNC(=N)N)NC(=O)[C@@H]2CSSC[C@@H]3NC(=O)[C@H](CO)NC(=O)[C@H]([C@@H](C)O)NC(=O)[C@@H]4CCCN4C(=O)[C@H](C)NC(=O)[C@H](Cc4c[nH]c5ccccc45)NC(=O)[C@H](CC(=O)O)NC(=O)CNC(=O)[C@H](CCCNC(=N)N)NC(=O)CNC(=O)[C@H](CCC(N)=O)NC(=O)[C@@H]4CCCN4C(=O)[C@@H](NC(=O)CNC(=O)C(C)F)CSSC[C@H](NC(=O)CNC(=O)[C@H](C)NC(=O)[C@H](CC(C)C)NC(=O)[C@H](CSSC[C@@H](C(=O)NCC(N)=O)NC(=O)[C@H]([C@@H](C)O)NC(=O)[C@H](CCCNC(=N)N)NC(=O)[C@@H]4CCCN4C1=O)NC(=O)[C@H](CC(=O)O)NC(=O)[C@H](CO)NC(=O)[C@H](CC(=O)O)NC(=O)[C@H](CCC(N)=O)NC(=O)[C@H](CO)NC3=O)C(=O)N[C@@H](C(C)C)C(=O)N2 (stereo partly drawn) [fluorine-18 labelled] gave a tissue uptake of 0.29 ± 0.12 %ID/g (nude mouse, U-87 MG xenograft, stomach; intravenous, 2.5 h, added: cyclo(RGDyK) co-injected).
CN1CC[C@H](c2c(O)cc(O)c3c(=O)cc(-c4ccccc4Cl)oc23)[C@H](O)C1: “maximum tolerated dose” 70 mg/m² (patients with advanced solid tumours; intravenous, every 2 weeks, added: FOLFOX).
For [123I]c1cncc(OC[C@@H]2CCN2)c1, the tissue/plasma ratio was 29.7 (SPECT; human, low plasma nicotine, Pons; intravenous; relative to: plasma).
ClC(Cl)(Cl)Cl — result for “hepatocyte necrosis score”: 0 (Sprague-Dawley rat, male, liver; oral, 50 mg/kg, 24 h; direction not given).
With CN[C@@](C)(C[18F])C(=O)O the tissue uptake was 2.1 ± 0.4 %ID/g (SCID mouse A549 xenograft, lung; 60 min, post injection).
The AUC(0-24) of CC(C)c1nc(CN(C)C(=O)N[C@H](C(=O)N[C@@H](Cc2ccccc2)C[C@H](O)[C@H](Cc2ccccc2)NC(=O)OCc2cncs2)C(C)C)cs1 is reported as 6780 ng·h/mL (healthy human volunteers, plasma; oral, dose not given, added: rosuvastatin plus 2D regimen).
Under “critical aggregation concentration”, `GLASTLTRWAHYNALIRAF` is recorded as 50 µM (circular dichroism; peptide, 20% TFE).

Excerpt of the above:
CSCC[C@@H]1NC(=O)[C@H](CC(=O)O)NC(=O)CNC(=O)[C@H](CCCNC(=N)N)NC(=O)[C@H](C)NC(=O)[C@H](CCC(=O)O)NC(=O)[C@H](CCCNC(=N)N)NC(=O)[C@@H]2CSSC[C@@H]3NC(=O)[C@H](CO)NC(=O)[C@H]([C@@H](C)O)NC(=O)[C@@H]4CCCN4C(=O)[C@H](C)NC(=O)[C@H](Cc4c[nH]c5ccccc45)NC(=O)[C@H](CC(=O)O)NC(=O)CNC(=O)[C@H](CCCNC(=N)N)NC(=O)CNC(=O)[C@H](CCC(N)=O)NC(=O)[C@@H]4CCCN4C(=O)[C@@H](NC(=O)CNC(=O)C(C)F)CSSC[C@H](NC(=O)CNC(=O)[C@H](C)NC(=O)[C@H](CC(C)C)NC(=O)[C@H](CSSC[C@@H](C(=O)NCC(N)=O)NC(=O)[C@H]([C@@H](C)O)NC(=O)[C@H](CCCNC(=N)N)NC(=O)[C@@H]4CCCN4C1=O)NC(=O)[C@H](CC(=O)O)NC(=O)[C@H](CO)NC(=O)[C@H](CC(=O)O)NC(=O)[C@H](CCC(N)=O)NC(=O)[C@H](CO)NC3=O)C(=O)N[C@@H](C(C)C)C(=O)N2 (stereo partly drawn) [fluorine-18 labelled] gave a tissue uptake of 0.29 ± 0.12 %ID/g (nude mouse, U-87 MG xenograft, stomach; intravenous, 2.5 h, added: cyclo(RGDyK) co-injected).
